Experimental data collected from several papers.
Every numbered part comes from another study and shows a few of its results, in no order. Positions count from the first letter of the parent shown.
Chain of UniProt Q00526 (whole entry, looked up): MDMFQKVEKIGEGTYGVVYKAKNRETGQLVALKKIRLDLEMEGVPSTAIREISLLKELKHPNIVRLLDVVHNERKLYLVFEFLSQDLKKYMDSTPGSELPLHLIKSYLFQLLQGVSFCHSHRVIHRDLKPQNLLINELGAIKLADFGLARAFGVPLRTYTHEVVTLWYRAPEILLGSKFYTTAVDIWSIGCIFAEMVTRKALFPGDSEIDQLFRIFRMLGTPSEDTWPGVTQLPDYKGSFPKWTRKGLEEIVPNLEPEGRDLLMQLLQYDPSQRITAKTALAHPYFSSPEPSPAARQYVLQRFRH

Set 1
Target: tungstate, free oxyanion
Technique: microfluidic competitive inhibition
Matrix: in vitro, cell-free expressed
Concentration: not given
Notes: derived from inhibition constants, unchanged parent 2230 nM
Reading: lower = stronger binding
Starting sequence: PafA, mature enzyme, eGFP fusion (Elizabethkingia meningoseptica, UniProt Q9KJX5); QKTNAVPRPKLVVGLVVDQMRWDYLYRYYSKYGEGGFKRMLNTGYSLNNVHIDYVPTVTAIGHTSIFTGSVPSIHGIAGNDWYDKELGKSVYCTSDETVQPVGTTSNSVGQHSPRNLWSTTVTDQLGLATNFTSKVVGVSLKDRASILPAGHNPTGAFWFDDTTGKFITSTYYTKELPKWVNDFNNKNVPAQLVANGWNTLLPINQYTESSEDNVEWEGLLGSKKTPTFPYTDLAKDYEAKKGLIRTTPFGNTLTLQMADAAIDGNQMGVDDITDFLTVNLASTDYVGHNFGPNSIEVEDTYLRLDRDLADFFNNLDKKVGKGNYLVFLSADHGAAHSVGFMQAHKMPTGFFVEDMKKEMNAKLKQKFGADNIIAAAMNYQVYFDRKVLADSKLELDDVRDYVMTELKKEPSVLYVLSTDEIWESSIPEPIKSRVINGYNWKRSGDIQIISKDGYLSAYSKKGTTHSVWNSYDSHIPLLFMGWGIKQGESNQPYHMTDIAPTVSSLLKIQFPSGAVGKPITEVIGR
| Substitution | oxyanion analog dissociation constant |
| --- | --- |
| V58G | 10.1 µM |
| V339A | 2.12 µM |
| S295G | 2.27 µM |
| M258G | 1.36 µM |
| Y383V | 2.28 µM |
| F67G | 1.68 µM |
| I524G | 1.7 µM |
| K322V | 2.1 µM |

Set 2
Target: UDP-N-acetylglucosamine--peptide N-acetylglucosaminyltransferase 110 kDa subunit (OGT, Homo sapiens, UniProt O15294)
Chain of UniProt O15294 (whole entry, looked up): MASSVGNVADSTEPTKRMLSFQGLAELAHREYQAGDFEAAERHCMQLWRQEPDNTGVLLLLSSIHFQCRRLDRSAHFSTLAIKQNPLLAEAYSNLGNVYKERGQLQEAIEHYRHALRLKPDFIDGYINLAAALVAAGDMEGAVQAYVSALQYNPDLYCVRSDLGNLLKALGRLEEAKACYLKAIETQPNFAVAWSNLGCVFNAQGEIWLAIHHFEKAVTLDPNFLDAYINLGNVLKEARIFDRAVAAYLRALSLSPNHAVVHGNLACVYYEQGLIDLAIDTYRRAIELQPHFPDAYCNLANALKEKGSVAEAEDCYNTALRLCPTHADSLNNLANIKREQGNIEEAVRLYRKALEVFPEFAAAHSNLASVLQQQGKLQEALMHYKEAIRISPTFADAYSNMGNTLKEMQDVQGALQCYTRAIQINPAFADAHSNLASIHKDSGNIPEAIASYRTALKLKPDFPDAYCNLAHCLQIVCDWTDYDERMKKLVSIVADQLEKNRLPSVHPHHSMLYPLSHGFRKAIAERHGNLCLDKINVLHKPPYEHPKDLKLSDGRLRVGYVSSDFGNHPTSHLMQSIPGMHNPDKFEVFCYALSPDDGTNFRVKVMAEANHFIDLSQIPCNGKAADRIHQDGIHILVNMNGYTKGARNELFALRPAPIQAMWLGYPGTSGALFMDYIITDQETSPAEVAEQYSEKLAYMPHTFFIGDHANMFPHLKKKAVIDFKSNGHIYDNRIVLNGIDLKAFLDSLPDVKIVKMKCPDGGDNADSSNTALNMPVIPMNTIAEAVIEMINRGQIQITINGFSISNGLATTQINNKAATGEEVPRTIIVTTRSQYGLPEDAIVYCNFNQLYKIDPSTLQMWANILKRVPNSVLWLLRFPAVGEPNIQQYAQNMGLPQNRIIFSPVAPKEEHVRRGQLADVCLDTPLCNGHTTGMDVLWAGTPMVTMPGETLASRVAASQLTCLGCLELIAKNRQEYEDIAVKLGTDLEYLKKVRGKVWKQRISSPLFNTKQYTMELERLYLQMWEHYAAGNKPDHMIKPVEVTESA
Read-out: binding
Technique: phage display NGS
Molecule type: peptide
Concentration: concentration not given
Notes: panning round 2
Baseline: input library
| Molecule | enrichment fold change |
| --- | --- |
| KGVRETWLPAYTIVY | 3.76 |
| HPHPPHPHGFDTHHV | 10.6 |
| SHPIHHSLIKMKHNH | 3.79 |
| QKPMLFLPQYIIVAN | 87 |
| STYTPFYPIKFWANR | 6.33 |
| HIHQHIHQEEQWDYH | 5.23 |
| HMPWTHHYAKPYHVG | 12.4 |
| QNDRYLPAYVITYAR | 119 |

Set 3
Target: CCNB1, cyclin fold, Cln2 fusion (human)
Technique: yeast growth competition, sequencing
Matrix: yeast
Notes: strong parent motif
Baseline: not given
Reading: higher = stronger binding
Starting sequence: viral docking peptide; TSVRRALFTGGSD
| Substitution | normalised enrichment score |
| --- | --- |
| G10E | 4.16 |
| S12D | 3.68 |
| S2F | 1.48 |
| G10S | 2.49 |
| S12K | 1.02 |
| V3C | 1.13 |
| G11F | 1.71 |
| R5V | 0.794 |

Mixed results
| SMILES | target | test | conditions | scale | quantity | result |
| --- | --- | --- | --- | --- | --- | --- |
| N/C(=N\[N+](=O)[O-])N/N=C\c1ccc(-c2cccc([N+](=O)[O-])c2)o1 | Cyclin-dependent kinase 3, with cyclin E (CDK3, Homo sapiens, UniProt Q00526) | enzyme activity, inhibitor | 0.5 µM | baseline: control | remaining activity | 85% |

Some of these lines once more (set 3):
| Substitution | normalised enrichment score |
| --- | --- |
| G10S | 2.49 |
| V3C | 1.13 |
